Assay results gathered from unrelated publications.
Numbered parts are unrelated; each lists some results of a single study.

Sample 1
Target: Interferon regulatory factor 7, full length, phosphomimetic (IRF7, Homo sapiens, UniProt Q92985, residues 1-503, S471D/S472D/S475D/S476D/S477D/S483D/S484D/S487D)
Chain of UniProt Q92985 (whole entry, unmodified, looked up): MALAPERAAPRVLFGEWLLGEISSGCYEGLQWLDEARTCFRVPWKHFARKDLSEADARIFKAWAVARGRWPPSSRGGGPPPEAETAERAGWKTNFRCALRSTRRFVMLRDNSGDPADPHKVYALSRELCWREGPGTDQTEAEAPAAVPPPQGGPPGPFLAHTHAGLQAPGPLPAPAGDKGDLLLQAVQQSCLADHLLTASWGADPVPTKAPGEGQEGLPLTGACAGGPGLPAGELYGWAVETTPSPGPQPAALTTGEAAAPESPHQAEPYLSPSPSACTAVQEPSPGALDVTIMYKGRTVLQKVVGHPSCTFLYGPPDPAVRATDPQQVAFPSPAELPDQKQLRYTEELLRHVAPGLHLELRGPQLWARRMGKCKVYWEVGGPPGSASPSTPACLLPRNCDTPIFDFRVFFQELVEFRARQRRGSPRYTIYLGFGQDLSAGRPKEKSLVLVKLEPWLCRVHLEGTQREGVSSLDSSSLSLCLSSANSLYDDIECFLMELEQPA
Method: protein-binding microarray
Molecule type: double-stranded DNA, one strand shown
Matrix: in vitro
Tested at: 2200 nM top
Setting: 60-bp whole probe
With: salmon DNA 0.4 mg/ml
Relative to: random background probes
Reading: higher = stronger binding
Measurement: fitted relative affinity
Shared flanks, not repeated: GCCTAGCAC … GTCTTGATTCGCTTGACGCTGCTG
TCAGATTTCAGTTCCGATTAGTGCTAG: 2.43 z-score
TCACCACCCGCTCTGGCACTGTGCTAG: 0.562 z-score
GACGGATTGGGTATCGGGACGTGCTAG: -0.00764 z-score
GACGATTTCGGGTTTCGACACGTGCTA: 5.05 z-score
TGAGGACTGCTTTTCCTTTAGTGCTAG: 1.24 z-score
TCATATTTATGTATACAACTGTGCTAG: 1.02 z-score
TTAGATTTAAGACTGGATTAGTGCTAG: -0.823 z-score
TCATATATTCATATATAACTGTGCTAG: 0.867 z-score

Sample 2
Target: Replicase polyprotein 1ab, 3C-like proteinase (rep, Middle East respiratory syndrome-related coronavirus, UniProt K9N7C7)
Observed: enzyme activity
Action: inhibitor
Organism: MERS-CoV
Tested at: 10 µM
Measurement: inhibition
CC(=O)OC[C@H]1O[C@@H]([S-])[C@H](OC(C)=O)[C@@H](OC(C)=O)[C@@H]1OC(C)=O.CCP(CC)CC.[Au+]: 27%
Nc1nnc(Sc2ncc([N+](=O)[O-])s2)s1: 45%
Oc1ccc2ccccc2c1SSc1c(O)ccc2ccccc12: 6%
O=C1C=CC(=O)C2=C1C1c3ccccc3C2c2ccccc21: 45%
C=CC1=C(C)c2cc3[nH]c(cc4nc(cc5[nH]c(cc1n2)c(C)c5C=C)C(C)=C4CCC(=O)O)c(CCC(=O)O)c3C.[Fe+3]: 7%
O=c1[nH]nc(Sc2ncc([N+](=O)[O-])s2)n1-c1ccc2c(c1)OCCO2: 84%
C[n+]1c2cc(N)ccc2cc2ccc(N)cc21.Nc1ccc2cc3ccc(N)cc3nc2c1: 50%

Sample 3
Target: Replicase polyprotein 1ab, nsp13 helicase (rep, Severe acute respiratory syndrome coronavirus 2, UniProt P0DTD1)
Action: inhibitor
Tested at: 20 µM
Measurement: inhibition
O=C(NO)C1(CS(=O)(=O)c2ccc(Oc3ccc(Cl)cc3)cc2)CCOCC1: 0.07%
O=C(O)c1cc(=O)c2c(Cl)cc(Cl)cc2[nH]1: -0.34%
C/C=C/C[C@@H](C)C(=O)[C@H]1C(=O)N[C@@H](C(C)C)C(=O)N(C)CC(=O)N(C)[C@@H](CC(C)C)C(=O)N[C@@H](C(C)C)C(=O)N(C)[C@@H](CC(C)C)C(=O)N[C@@H](C)C(=O)N[C@H](C)C(=O)N(C)[C@@H](CC(C)C)C(=O)N(C)[C@@H](CC(C)C)C(=O)N(C)[C@@H](C(C)C)C(=O)N1C: 4.71%
Cc1cc(CCCOc2c(C)cc(-c3noc(C(F)(F)F)n3)cc2C)on1: 4.76%
N#Cc1ccc(N(Cc2ccc(Br)cc2)n2cnnc2)cc1: -0.01%
O=C(NCc1cccc(O)c1)Nc1nc(-c2ccncc2)cs1: -5.58%
C[C@]12CC[C@@H](O)C[C@H]1CC[C@@H]1[C@@H]2CC[C@]2(C)C(=O)CC[C@@H]12: 5.55%
C=C[C@@H]1C2=CCOC(=O)C2=CO[C@H]1O[C@@H]1O[C@H](CO)[C@@H](O)[C@H](O)[C@H]1O: -2.29%
O=C1c2ccccc2C(=O)c2ccccc21: 4.7%
Cc1[nH]c(/C=C2\C(=O)Nc3ccc(F)cc32)c(C)c1C(=O)NCCN1CCCC1: 16.1%
CCOc1ccccc1O[C@H](c1ccccc1)[C@H]1CNCCO1: 2.98%
Cc1c(C(N)=O)cc([N+](=O)[O-])cc1[N+](=O)[O-]: 0.43%
CC1(C)O[C@H]2CC(=O)OC[C@]23[C@H]2CC[C@@]4(C)[C@H](c5ccoc5)OC(=O)[C@H]5O[C@]54[C@]2(C)C(=O)C[C@@H]13: -1.49%
CCOC(=O)[C@H](CCc1ccccc1)N[C@@H](C)C(=O)N1Cc2cc(OC)c(OC)cc2C[C@H]1C(=O)O: 1.75%
C[N+](C)(C)CCCCCCCCCC[N+](C)(C)C: -6.14%
CN1CCC[C@@H]1Cc1c[nH]c2ccc(CCS(=O)(=O)c3ccccc3)cc12: 6.35%
COC(=O)Nc1nc2cc(C(=O)c3ccc(F)cc3)ccc2[nH]1: 6.7%
Cc1ccc([N+](=O)[O-])cc1S(=O)(=O)N(C)C: -5.03%
C[C@@H]1CCC[C@H](C)N1NC(=O)c1ccc(Cl)c(S(N)(=O)=O)c1: 2.14%
N[C@@H](Cc1ccc(I)cc1)C(=O)O: 1.04%
COc1c(OCCCN2CCOCC2)ccc2c1N=C(NC(=O)c1cnc(N)nc1)N1CCN=C21: 7.7%

Sample 4
Target: Histone acetyltransferase KAT6A, winged helix 1, GST fusion (KAT6A, Homo sapiens, UniProt Q92794, residues 1-85)
Method: protein binding microarray
Molecule type: double-stranded DNA, one strand shown
Matrix: in vitro
Tested at: not given
Setting: 8-mer, flanks averaged, mean of 2 arrays, mostly near background
Relative to: not given
Reading: higher = stronger binding
Measurement: E-score
Target sequence (chain): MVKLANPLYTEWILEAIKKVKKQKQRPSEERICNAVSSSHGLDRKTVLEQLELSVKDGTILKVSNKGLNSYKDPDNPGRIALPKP
ATTAACCC: 0.0546
CGGCGTAG: 0.278
CGAGTAAA: -0.053
CCAAGCGA: 0.028
AAGGGTTA: 0.0231
ACTCTATA: 0.0938
AAACGTAG: -0.167
AGGAGTTC: -0.252

Repeated from above (sample 3):
O=C(NO)C1(CS(=O)(=O)c2ccc(Oc3ccc(Cl)cc3)cc2)CCOCC1: 0.07%
O=C(O)c1cc(=O)c2c(Cl)cc(Cl)cc2[nH]1: -0.34%
C/C=C/C[C@@H](C)C(=O)[C@H]1C(=O)N[C@@H](C(C)C)C(=O)N(C)CC(=O)N(C)[C@@H](CC(C)C)C(=O)N[C@@H](C(C)C)C(=O)N(C)[C@@H](CC(C)C)C(=O)N[C@@H](C)C(=O)N[C@H](C)C(=O)N(C)[C@@H](CC(C)C)C(=O)N(C)[C@@H](CC(C)C)C(=O)N(C)[C@@H](C(C)C)C(=O)N1C: 4.71%
Cc1cc(CCCOc2c(C)cc(-c3noc(C(F)(F)F)n3)cc2C)on1: 4.76%
N#Cc1ccc(N(Cc2ccc(Br)cc2)n2cnnc2)cc1: -0.01%
O=C(NCc1cccc(O)c1)Nc1nc(-c2ccncc2)cs1: -5.58%
